Assay results from different studies.
Each numbered part is a random draw from the data of one study; scales do not carry over between parts. Changes are numbered by the printed parent chain.

Sample 1
Target: Prothrombin, mature alpha-thrombin (F2, Homo sapiens, UniProt P00734)
Technique: aptamer microarray, sandwich
Molecule type: DNA with 2'F-ANA
Sample: in vitro
Concentration: 200 nM
Setting: whole 15-mer aptamer, many near background
Added: Cy3 exosite-II aptamer, 400 nM
Reading: higher = stronger binding
Oligonucleotide: GGTTGGTGTGGTTGG
| Modification | mean fluorescence intensity |
| --- | --- |
| 2'F-ANA at 2 5 7 8 10 12 14 15 | 44.2 a.u. |
| 2'F-ANA at 1 5 7 8 10 12 14 | 44.6 a.u. |
| 2'F-ANA at 1 3 6 12 13 15 | 391 a.u. |
| 2'F-ANA at 4 5 7 9 10 15 | 46.2 a.u. |
| 2'F-ANA at 1 2 3 6 8 10 | 67.5 a.u. |
| 2'F-ANA at 1 3 6 8 10 13 14 15 | 73.2 a.u. |
| 2'F-ANA at 2 9 13 | 344 a.u. |
| 2'F-ANA at 1 2 3 5 6 8 9 13 | 86 a.u. |
| 2'F-ANA at 1 2 3 4 6 9 14 | 74.4 a.u. |

Sample 2
Target: RNA binding protein fox-1 homolog 2, RRM domain, GST-SBP tag (RBFOX2, Homo sapiens, UniProt O43251-10, residues 100-194)
Technique: RNA Bind-n-Seq
Molecule type: RNA
Sample: in vitro
Concentration: 365 nM
Setting: natural RNA segment, single round, ends assumed
Relative to: no-protein control
Reading: higher = stronger binding
Constant ends, left off below: GGGAGUUCUACAGUCCGACGAUC … UGGAAUUCUCGGGUGCCAA
Residues (chain): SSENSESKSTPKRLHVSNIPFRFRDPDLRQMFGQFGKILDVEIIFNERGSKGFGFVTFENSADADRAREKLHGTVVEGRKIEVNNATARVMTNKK
| Oligonucleotide | RBNS enrichment (R) |
| --- | --- |
| UUGGGUGAAAGUGGUUCUAGAACCUGCACUGAAUAGUAGUAAAGCAAUAAGGCCCGAUUCAUCCCACAGCACUGAUCAUCUCUCAAUGCCCCACCCCAAGCGAACGGUAA | 0.456 |
| UUGCACUGAGCUUGCCAGUGGUGACUGCCAGGAACGCCUAGGAUCCACUUUGGUGGCUGUUGUUGCAGAAGACUAAACUGCUUUGGACUAUUUAACGAUUGCCUGACAGU | 0.331 |
| UUUCUGGACAAACUCUUUAUGUGUUUUUCCCAAGAAUAGUUAUCUACUUCCUGGAGGCAAAAUCCUUGGAUUUACUAACAUGAUGAUUUACCUUUUCUUCACCGUUGUCG | 0.245 |
| UGGCACUGUAAGGUGCUUGCUCCCCAAGACACAUCCUAAAAGGUGUUGUAAUGGUGAAAACGUCUUCCUUCUUUAUUGCCCCUUCUUAUUUAUGUGAACAACUGUUUGUC | 0.464 |
| AGCCUCGUAUUUCCCCAUUGAGAGUUUUGUUCCAAGGAAUAUGAAGUGAGACAUAUGGGUGAGUCAUAAUAAUCAAAAUAAUUUAUGAAGAGCUGGGUCUGCAAUAGCUA | 0.47 |
| GACCCAUGGCCAUGGAACCCUGAAGAAGCAUGUCUGGCCGCCUCUGAGCUCCUCCCACCCUCCUCCAGGAACCUCCACAUCUCCAAAAAUCUCCCUGUUGACUCAGUGCC | 1.94 |
| UCUGUGUGAAUAUGUUUUAGAUGUUUAUAUACAUUUUGAAGAGACCCAGUAGCCCAUAGCACAAAUCUUGUGAACAUCUGAUAUGUUUUCAAGUGGCUACCUAGGAUAAG | 0.49 |
| CUGGGAUUUUAAGCUAGGAUAUGAUUAUAUUUCCUAUAAAACUAAAACUUUUAUUUCAUAAAUUUUAAAAUAAUUAUUUUUGAUUAUGAAUACUAGUCCAAAUUUAAUAU | 1.27 |
| AUUUGCUCACAUUAACAAAUUAAAGUGCCUGAAGCAUAAUUCAUUCUUUACCUGUAUACUAAAAACCCUGUUGUAUUGAUUUUUUUAUAAUAAGCCUUUUUACCUCUGUG | 0.725 |
| ACUCUGUCCCCUCAUGACUUUUUAGACACAGGGACUAGGACAUCGACCACCCUCUGCCCCUCCUGCAGUCAGAACCCGAGUAGUGCAAGAACGGCCACCCGGUUUUGCCA | 0.395 |

Sample 3
Target: CCND2, cyclin fold, Cln2 fusion (human)
Technique: yeast growth competition, sequencing
Sample: yeast
Setting: strong parent motif
Relative to: not given
Reading: higher = stronger binding
Starting sequence: PKN2 docking peptide (human); VSAVRKLDFSDTM
| Change | normalised enrichment score |
| --- | --- |
| V4I | 4.18 |
| D11Q | 3.07 |
| V4Y | 1.04 |
| D8Q | 1.58 |
| V4F | 0.625 |
| D11P | 2.59 |

Single results of other studies
| Substance | target | assay | test system | conditions | how to read | measurement | result |
| --- | --- | --- | --- | --- | --- | --- | --- |
| PhoQ, residues 284 288 289 292 302 303 SSCLAV | PhoP, residues 12 14 15 18 19 LHHVQ (Escherichia coli, UniProt P23836) | Sort-seq, item: YFP reporter | E. coli | PhoQ-PhoP variant library, added: 10 µM Mg2+ | relative to: high Mg2+ state, higher = stronger signaling | fold induction | 2.42 |

Some of these lines once more (sample 2):
| Oligonucleotide | RBNS enrichment (R) |
| --- | --- |
| AGCCUCGUAUUUCCCCAUUGAGAGUUUUGUUCCAAGGAAUAUGAAGUGAGACAUAUGGGUGAGUCAUAAUAAUCAAAAUAAUUUAUGAAGAGCUGGGUCUGCAAUAGCUA | 0.47 |
